Results of several laboratories.
Compare with care: the assays were run in different laboratories. Values joined by “and” are separate records of one study, mostly repeats; a detail may differ. Numbers after ± are the reported error.
Nuclear receptor subfamily 2 group C member 2 ligand-binding domain: Nuclear receptor subfamily 2 group C member 2, ligand-binding domain (Homo sapiens, UniProt P49116)
UniProt P49116, sequence (whole entry, looked up): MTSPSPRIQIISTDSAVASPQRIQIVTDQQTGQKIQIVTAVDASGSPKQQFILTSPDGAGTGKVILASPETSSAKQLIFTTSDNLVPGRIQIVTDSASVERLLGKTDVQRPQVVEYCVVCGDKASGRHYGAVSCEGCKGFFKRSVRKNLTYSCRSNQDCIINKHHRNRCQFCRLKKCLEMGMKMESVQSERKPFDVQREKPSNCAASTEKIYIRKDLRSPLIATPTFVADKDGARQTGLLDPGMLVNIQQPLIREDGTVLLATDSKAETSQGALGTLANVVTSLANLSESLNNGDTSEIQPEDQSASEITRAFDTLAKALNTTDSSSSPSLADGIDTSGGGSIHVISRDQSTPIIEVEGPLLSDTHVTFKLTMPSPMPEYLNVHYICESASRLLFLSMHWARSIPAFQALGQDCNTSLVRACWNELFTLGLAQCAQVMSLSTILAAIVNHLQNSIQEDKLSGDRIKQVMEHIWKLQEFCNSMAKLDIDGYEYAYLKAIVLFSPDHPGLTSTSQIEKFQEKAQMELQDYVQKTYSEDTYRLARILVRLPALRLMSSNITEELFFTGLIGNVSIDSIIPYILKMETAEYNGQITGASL
Coatomer subunit beta' WD repeat domain: Coatomer subunit beta', WD repeat domain (Homo sapiens, UniProt P35606)
UniProt P51575, sequence (whole entry, unmodified, looked up): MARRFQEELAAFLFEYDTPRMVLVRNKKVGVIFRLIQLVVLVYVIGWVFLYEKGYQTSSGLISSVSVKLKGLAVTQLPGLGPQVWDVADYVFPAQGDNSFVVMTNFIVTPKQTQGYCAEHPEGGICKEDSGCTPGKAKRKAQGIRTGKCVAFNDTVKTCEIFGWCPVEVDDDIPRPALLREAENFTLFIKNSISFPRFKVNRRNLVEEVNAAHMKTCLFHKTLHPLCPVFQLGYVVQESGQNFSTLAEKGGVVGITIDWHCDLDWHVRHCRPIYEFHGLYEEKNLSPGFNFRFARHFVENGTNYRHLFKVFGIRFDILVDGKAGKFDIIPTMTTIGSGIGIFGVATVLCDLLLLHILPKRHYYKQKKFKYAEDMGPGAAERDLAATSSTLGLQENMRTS
UniProt Q64663, sequence (whole entry, unmodified, looked up): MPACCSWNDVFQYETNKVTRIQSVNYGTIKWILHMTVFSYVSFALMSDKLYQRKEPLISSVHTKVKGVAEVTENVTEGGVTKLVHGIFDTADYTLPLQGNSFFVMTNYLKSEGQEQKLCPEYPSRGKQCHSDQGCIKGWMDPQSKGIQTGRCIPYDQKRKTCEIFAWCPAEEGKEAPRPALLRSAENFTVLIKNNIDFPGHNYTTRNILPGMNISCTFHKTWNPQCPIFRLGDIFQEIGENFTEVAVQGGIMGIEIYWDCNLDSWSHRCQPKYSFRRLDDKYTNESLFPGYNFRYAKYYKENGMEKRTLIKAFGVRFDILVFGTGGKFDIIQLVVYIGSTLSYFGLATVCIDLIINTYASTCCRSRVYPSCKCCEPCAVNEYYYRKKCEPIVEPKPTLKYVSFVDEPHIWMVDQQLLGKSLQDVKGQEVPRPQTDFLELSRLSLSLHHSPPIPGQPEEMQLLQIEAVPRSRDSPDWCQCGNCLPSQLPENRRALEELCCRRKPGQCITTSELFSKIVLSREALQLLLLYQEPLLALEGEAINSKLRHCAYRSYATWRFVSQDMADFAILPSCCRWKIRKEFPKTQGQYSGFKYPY
UniProt O14980, sequence (whole entry, looked up): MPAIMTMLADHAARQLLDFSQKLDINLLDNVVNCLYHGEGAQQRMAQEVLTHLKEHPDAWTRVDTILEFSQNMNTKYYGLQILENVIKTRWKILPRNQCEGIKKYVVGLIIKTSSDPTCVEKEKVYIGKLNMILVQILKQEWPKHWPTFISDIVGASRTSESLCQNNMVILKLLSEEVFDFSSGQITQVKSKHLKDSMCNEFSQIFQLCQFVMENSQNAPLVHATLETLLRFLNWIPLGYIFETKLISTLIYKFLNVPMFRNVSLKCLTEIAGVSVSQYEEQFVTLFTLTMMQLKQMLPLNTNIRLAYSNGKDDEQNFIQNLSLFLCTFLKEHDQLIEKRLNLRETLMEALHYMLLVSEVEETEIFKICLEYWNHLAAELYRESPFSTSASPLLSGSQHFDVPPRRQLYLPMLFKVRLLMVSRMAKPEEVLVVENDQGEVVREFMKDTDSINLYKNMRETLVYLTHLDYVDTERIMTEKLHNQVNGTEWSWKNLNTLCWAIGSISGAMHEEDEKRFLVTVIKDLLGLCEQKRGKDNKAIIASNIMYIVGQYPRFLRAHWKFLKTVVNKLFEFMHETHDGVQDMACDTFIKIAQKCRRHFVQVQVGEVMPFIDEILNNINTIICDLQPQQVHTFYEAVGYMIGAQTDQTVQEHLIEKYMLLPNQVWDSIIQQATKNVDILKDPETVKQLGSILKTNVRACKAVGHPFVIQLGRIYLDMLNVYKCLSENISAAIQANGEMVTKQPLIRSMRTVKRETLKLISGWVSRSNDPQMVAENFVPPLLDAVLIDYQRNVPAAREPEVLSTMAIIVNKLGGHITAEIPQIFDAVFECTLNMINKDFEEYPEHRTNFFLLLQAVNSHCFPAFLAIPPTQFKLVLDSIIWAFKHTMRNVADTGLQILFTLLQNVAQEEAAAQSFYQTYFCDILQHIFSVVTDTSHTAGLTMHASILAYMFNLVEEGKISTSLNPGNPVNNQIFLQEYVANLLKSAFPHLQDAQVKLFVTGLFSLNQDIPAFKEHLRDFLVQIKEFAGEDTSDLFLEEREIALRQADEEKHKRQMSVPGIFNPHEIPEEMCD
UniProt P35606, sequence (whole entry, looked up): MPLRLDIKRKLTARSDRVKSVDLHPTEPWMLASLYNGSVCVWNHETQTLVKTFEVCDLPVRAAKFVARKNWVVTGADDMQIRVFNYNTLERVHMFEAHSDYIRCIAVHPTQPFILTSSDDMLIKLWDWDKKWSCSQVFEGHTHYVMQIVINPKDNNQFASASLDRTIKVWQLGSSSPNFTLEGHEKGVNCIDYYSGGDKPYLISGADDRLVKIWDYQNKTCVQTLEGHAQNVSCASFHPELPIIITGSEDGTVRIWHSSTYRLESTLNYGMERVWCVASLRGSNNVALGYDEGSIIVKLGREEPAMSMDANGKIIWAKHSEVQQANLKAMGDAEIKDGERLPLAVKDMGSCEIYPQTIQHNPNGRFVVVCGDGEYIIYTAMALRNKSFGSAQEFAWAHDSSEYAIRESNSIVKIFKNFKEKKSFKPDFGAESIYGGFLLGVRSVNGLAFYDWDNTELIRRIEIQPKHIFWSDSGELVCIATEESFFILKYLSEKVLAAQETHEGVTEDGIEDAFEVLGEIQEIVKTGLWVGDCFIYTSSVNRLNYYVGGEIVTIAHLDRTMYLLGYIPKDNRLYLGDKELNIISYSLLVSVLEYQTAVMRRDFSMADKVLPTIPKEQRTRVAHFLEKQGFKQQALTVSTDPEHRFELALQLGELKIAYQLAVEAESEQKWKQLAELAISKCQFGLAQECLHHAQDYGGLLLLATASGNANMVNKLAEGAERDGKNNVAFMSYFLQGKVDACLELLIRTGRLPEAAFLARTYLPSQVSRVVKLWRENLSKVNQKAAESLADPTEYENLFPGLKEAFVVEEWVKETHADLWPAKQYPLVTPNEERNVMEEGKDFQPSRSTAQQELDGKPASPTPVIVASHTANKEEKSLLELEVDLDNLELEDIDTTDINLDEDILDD
UniProt P12763, sequence (whole entry, unmodified, looked up): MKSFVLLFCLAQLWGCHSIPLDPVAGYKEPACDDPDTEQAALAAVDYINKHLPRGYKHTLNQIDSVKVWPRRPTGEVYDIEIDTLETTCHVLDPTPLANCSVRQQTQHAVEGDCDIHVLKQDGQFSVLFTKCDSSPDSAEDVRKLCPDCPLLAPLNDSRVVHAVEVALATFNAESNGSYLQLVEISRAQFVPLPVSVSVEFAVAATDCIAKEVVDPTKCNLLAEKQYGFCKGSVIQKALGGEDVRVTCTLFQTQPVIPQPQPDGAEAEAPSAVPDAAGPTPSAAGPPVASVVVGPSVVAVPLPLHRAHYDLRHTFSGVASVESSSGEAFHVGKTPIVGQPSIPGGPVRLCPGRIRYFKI
UniProt Q13639, sequence (whole entry, looked up): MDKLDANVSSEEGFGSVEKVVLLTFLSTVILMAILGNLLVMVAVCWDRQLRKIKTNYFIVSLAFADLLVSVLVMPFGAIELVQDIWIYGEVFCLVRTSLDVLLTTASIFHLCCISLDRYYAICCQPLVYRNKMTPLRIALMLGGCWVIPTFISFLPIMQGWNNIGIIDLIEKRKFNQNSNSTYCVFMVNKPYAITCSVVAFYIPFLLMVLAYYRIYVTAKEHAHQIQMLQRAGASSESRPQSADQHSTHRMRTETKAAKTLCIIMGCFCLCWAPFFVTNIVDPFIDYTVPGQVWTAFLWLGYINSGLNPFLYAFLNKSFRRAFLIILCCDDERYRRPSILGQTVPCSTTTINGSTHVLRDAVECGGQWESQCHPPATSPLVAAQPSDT
UniProt Q16774, sequence (whole entry, looked up): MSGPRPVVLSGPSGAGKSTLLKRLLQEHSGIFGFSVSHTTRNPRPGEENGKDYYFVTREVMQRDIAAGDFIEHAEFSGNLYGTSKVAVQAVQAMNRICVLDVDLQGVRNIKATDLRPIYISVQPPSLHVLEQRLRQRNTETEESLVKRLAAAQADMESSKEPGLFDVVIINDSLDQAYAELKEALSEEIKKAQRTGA
UniProt P35560, sequence (whole entry, looked up): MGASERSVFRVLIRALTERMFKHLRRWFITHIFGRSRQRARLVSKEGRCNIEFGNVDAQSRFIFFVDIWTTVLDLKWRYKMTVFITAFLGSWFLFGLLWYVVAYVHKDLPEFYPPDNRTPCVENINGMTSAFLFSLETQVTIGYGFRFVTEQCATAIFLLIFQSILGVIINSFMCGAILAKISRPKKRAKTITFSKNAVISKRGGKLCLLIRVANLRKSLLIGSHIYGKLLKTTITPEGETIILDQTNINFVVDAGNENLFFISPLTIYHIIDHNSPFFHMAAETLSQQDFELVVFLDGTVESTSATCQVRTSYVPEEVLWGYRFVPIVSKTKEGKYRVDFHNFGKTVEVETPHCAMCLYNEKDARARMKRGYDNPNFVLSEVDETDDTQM

SMILES | target | assay | test system | conditions | scale | endpoint | result
Nc1ncnc2c1ncn2[C@@H]1O[C@H](COP(=O)(O)OP(=O)(O)OP(=O)(O)O)[C@@H](O)[C@H]1O | ATP-sensitive inward rectifier potassium channel 1 (Rattus norvegicus, UniProt P35560) | inside-out patch clamp | renal principal cells, rat | 0.4 mM |  | mean long closed time | 600 ms
O=C(O)Cc1ccccc1Nc1c(Cl)cccc1Cl | Nuclear receptor subfamily 2 group C member 2 ligand-binding domain | SPR imaging |  | 600 nM |  | koff | 6.8e-07 s⁻¹
O=C1OC(c2ccccc2)=N/C1=C\c1ccccc1O | MAL12 (Saccharomyces cerevisiae S288c, UniProt P53341) | inhibitor, Lineweaver-Burk |  | 1600 ppm, together with: pNPG substrate |  | Vmax | 0.007 mM/min
Cc1ccc(C(=O)Nc2ccc3ccccc3c2)o1 | Otop1 (Mus musculus, UniProt Q80VM9) | proton current, voltage ramp patch-clamp |  | 10 µM, Na+ bath cation |  | reversal potential | 56.7 mV
CC[C@@H]1[C@H](F)C(=O)N[C@@H]1COc1nccc2cc(C(N)=O)c(OC)cc12 | MARK2 (Homo sapiens, UniProt Q7KZI7) | ATP-site probe binding, ActivX profiling | THP-1 cell lysate | 0.04 mM, Lys1 site |  | inhibition | 6.9%
COc1cc2c(cc1OC)C(=O)C(CC1CCN(Cc3ccccc3)CC1)C2 (stereo not drawn) | HTR4 (Homo sapiens, UniProt Q13639) | radioligand binding |  | concentration not given |  | inhibition | 3.7%
Nc1ncnc2c1ncn2[C@@H]1O[C@H](COP(=O)(O)CP(=O)(O)OP(=O)(O)O)[C@@H](O)[C@H]1O | P2X purinoceptor 1 (P2RX1, Homo sapiens, UniProt P51575, K136A) | calcium influx |  | 3.16 µM | relative to: ionomycin response | calcium influx | 100% and 85.7% and 97.5%
Nc1nc2c(ncn2[C@@H]2O[C@H](COP(=O)(O)O)[C@@H](O)[C@H]2O)c(=O)[nH]1 | GUK1 (Homo sapiens, UniProt Q16774) | substrate, NADH-coupled |  | KCl 10 mM, together with: ATP 2.5 mM |  | Km | 54.3 µM
CC(C)C[C@@H]1NC(=O)[C@H](C)NC(=O)CNC(=O)[C@H](CC(N)=O)NC(=O)[C@@H]2CCCN2C(=O)[C@H](Cc2ccc(O)cc2)NC(=O)[C@H](CCCNC(=N)N)NC(=O)[C@H](Cc2ccccc2)NC(=O)[C@@H](NC(=O)[C@H](CCCCN)NC(=O)[C@@H]2CCCN2C(=O)[C@H](CO)NC(=O)[C@H](C)NC(=O)[C@@H](N)Cc2ccc(O)cc2)CSSC[C@@H](C(=O)N[C@H](C(N)=O)[C@@H](C)O)NC(=O)[C@H](C)NC1=O | Alpha-2-HS-glycoprotein, asialo (AHSG, Bos taurus, UniProt P12763) | binding, isothermal titration calorimetry |  | pH 7.0, 25 °C, together with: asialofetuin |  | -ΔH | 5.16 kcal/mol
CC1(C)CC2(C)OC(=O)NC2(C)c2ccccc21 (stereo not drawn) | Coatomer subunit beta' WD repeat domain | binding, affinity selection mass spectrometry |  |  | relative to: other proteins in batch | log fold enrichment | -0.137
COc1cc(/C=C/C(=O)N2CCN(CC(=O)N3CCCC3)CC2)cc(OC)c1OC.O=C(O)/C=C\C(=O)O | Nuclear receptor subfamily 2 group C member 2 ligand-binding domain | SPR imaging |  | 600 nM |  | koff | 4.96e-07 s⁻¹
COCCC(=O)N1CCC(Oc2ccccc2)C1 (stereo not drawn) | Coatomer subunit beta' WD repeat domain | binding, affinity selection mass spectrometry |  |  | relative to: other proteins in batch | fold enrichment | 0.58
O=[N+]([O-])c1cc(C(F)(F)F)ccc1NCc1ccsc1 | Endothelial PAS domain-containing protein 1, PAS-B domain (EPAS1, Homo sapiens, UniProt Q99814) | binding, ITC, reverse mode |  |  |  | ΔH | -7.03 ± 0.12 kcal/mol
Nc1ncnc2c1ncn2[C@@H]1O[C@H](COP(=O)(O)OP(=O)(O)OP(=O)(O)O)[C@@H](O)[C@H]1O | P2X purinoceptor 7 (P2rx7, Rattus norvegicus, UniProt Q64663, I214A/R125A) | ion current, agonist, two-electrode voltage clamp | Xenopus laevis oocytes | 300 µM | relative to: highest concentration response | normalized current | 0.991 and 0.907 and 0.959
O=C(/C=C\n1cnc(-c2cc(C(F)(F)F)cc(C(F)(F)F)c2)n1)NNc1cnccn1 | Exportin-1 (XPO1, Homo sapiens, UniProt O14980) | nuclear export, high content imaging | HeLa Kyoto reporter | 0.03 µM, 2 h |  | cells with nuclear reporter | 1.86% and 2.83%

For quick reference, copied from above:
SMILES | target | assay | test system | conditions | scale | endpoint | result
O=C1OC(c2ccccc2)=N/C1=C\c1ccccc1O | MAL12 (Saccharomyces cerevisiae S288c, UniProt P53341) | inhibitor, Lineweaver-Burk |  | 1600 ppm, together with: pNPG substrate |  | Vmax | 0.007 mM/min
Cc1ccc(C(=O)Nc2ccc3ccccc3c2)o1 | Otop1 (Mus musculus, UniProt Q80VM9) | proton current, voltage ramp patch-clamp |  | 10 µM, Na+ bath cation |  | reversal potential | 56.7 mV
